Published values of several laboratories.
Parts stem from different laboratories: compare values within a part only. Positions count from the first letter of the parent shown.

Sample 1 — technique: RNA Bind-n-Seq; form: RNA; medium: in vitro; concentration: not given; relative to: input RNA pool; reading: higher = stronger binding; quantity: bound/input enrichment
Target: RING finger protein unkempt homolog, zinc fingers 1-6, GST-SBP tag (UNK, Homo sapiens, UniProt Q9C0B0, residues 30-357)
Notes: RNA with constant flanks, human-mouse chimeric sites, ends assumed
Shared flanks, not repeated: GGGAGUUCUACAGUCCGACGAUC … CAACAGAGGAUUGAGCAUCA
Residues (chain): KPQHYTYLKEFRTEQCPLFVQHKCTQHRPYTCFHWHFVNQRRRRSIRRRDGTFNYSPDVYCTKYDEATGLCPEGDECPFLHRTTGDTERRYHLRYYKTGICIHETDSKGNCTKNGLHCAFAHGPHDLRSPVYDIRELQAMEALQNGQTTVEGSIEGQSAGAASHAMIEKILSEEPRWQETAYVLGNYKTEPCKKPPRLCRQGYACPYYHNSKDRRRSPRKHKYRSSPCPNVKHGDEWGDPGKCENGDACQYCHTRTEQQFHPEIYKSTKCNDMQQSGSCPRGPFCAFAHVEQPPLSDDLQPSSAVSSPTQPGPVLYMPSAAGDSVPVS
UCUGGUCAUACUCGUGCGUAUGGUGUUUGCUUUGUGGACACUUCACUGGGCAAGUUUUUCAUAGGUCAGUUUUCGGAUGACCGCCACUGUUCCAGAUUUAGGACGCUAGUGGCUCACUAU: 0.223 ratio
ACUCAGAGAUCCACCUCCCAAAGUGCUGGGAGUAAAGUCUGAUAUUACACACCUAACUUGAUGGAUAUUUUAUAAAGUUAAUAUGAAUCUUCCUGUUCGUCCAGGGAAGAAAGAUUUGUU: 0.315 ratio
UAUAUCACCAAUGUCCUACAAAAUCCUGACUUGGCUCUGAGAAUGGCUGUACGUAAUAACUUAGCCGGUGCUGAAGAACUCUUUGCCCGGAAAUUUAAUGCUCUCUUCGCCCAGGGAAAC: 0.5 ratio
ACACAAUAUGAGACCAACAGCUUGGACUUCAAAGUUGGGGCAGAUGGGACAGUCUUCGCCACUAGGGAGCUGCAGGUCCCCUCCGAGCAGGUGGCGUUCACGGUGACUGCAUGGGACAGC: 0.234 ratio
CACACACUCUUCUGCGGGACCCUCAUCUUGCAGGCCCGAGCCUACGUGGGACCCCGUGUCCUGGCAGUGGUGACCCGCACAGGGUUCUGCACGGCAAAAGGGGGCCUGGUGAGCUCCAUC: 0.0637 ratio
AAGCAACGCAAACUUGAAACAAUUCGUUAUCUUGCAGCCUCAGUGUUCACUUGCUUGGCGAUAGCAUUGGGGUUUUAUAUAGAUUCUAAGGAGAACUGACGAUGAUGCUGCCGCUGCUGC: 0.193 ratio
UAUCCAACUUUCUUGCCACAUUUUGAAUUCCAAGACAUUAUUCCUCCAGAUGACUUCCUAACGAGUGAUGAAGAGCAAGAUUUGGUUUUAUUUGGAAGUUUGAGAGGACAAGUUGUUGGA: 0.168 ratio
CUGAGGAUACCACUGAAGAGACCUUAAAAGGAGUCAUUGAGGGCUCUGUUCGUGCAAGAAUAGUCACUGAUCGGGAAACUGGUUCUUCCAAAGGGUUUGGUUUUGUAGACUUUAAUAGUG: 1.03 ratio

Sample 2 — technique: aptamer microarray, sandwich; form: DNA with 2'F-ANA; medium: in vitro; concentration: 200 nM; added: Cy3 exosite-II aptamer, 400 nM; reading: higher = stronger binding; quantity: mean fluorescence intensity; oligonucleotide: GGTTGGTGTGGTTGG
Target: Prothrombin, mature alpha-thrombin (F2, Homo sapiens, UniProt P00734)
Notes: whole 15-mer aptamer, many near background
2'F-ANA at 1 3 5 7 9 10 11 12 13 14 15: 46.9 a.u.
2'F-ANA at 4 9 10 13 15: 67.8 a.u.
2'F-ANA at 1 5 6 9 10 11 12 14: 43.6 a.u.
2'F-ANA at 3 6 7 10 11 14 15: 362 a.u.
2'F-ANA at 2 3 4 5 10 13: 50.4 a.u.
2'F-ANA at 1 2 3 9 10 14: 54.8 a.u.
2'F-ANA at 3 5 8 13 14: 58.9 a.u.
2'F-ANA at 3 10 13 14 15: 400 a.u.
2'F-ANA at 1 3 4 5 6 9 10 13: 46.1 a.u.
2'F-ANA at 1 4 6 9 15: 103 a.u.
2'F-ANA at 1 2 5 6 7 9 11 12 13 15: 68.7 a.u.
2'F-ANA at 1 2 4 5 6 8 9 10 12 15: 54 a.u.
2'F-ANA at 1 2 3 5 8 11 13 14: 45.3 a.u.
2'F-ANA at 2 3 6 8 10 11 13: 287 a.u.
2'F-ANA at 1 2 5 7 8 10 12 13 14 15: 48.7 a.u.
2'F-ANA at 2 3 5 7 8 10 11 13 14 15: 50.3 a.u.
2'F-ANA at 4 9 10 12: 133 a.u.
2'F-ANA at 6 9 10 11 12 13 15: 145 a.u.
2'F-ANA at 2 4 5 7 8 9 10 11 12 13: 49.2 a.u.
2'F-ANA at 1 2 4 5 7 8 11 13: 50.1 a.u.
2'F-ANA at 1 3 5 6 7 9 14 15: 45.3 a.u.
2'F-ANA at 1 2 6 8 9 10 11 13 14: 77.4 a.u.
2'F-ANA at 1 3 4 6 9 11 14: 63.7 a.u.
2'F-ANA at 4 6 7 8 9 10 13 14 15: 58.2 a.u.
2'F-ANA at 2 3 5 7 10 11 14: 48.8 a.u.

Sample 3 — technique: DHFR PCA, deep sequencing; medium: yeast; added: (+)-ABA 1.4 µM; relative to: wild-type fitted maximum; reading: higher = stronger binding; quantity: relative binding score
Target: ABI1, truncated, D143A, DHFR fusion (Arabidopsis thaliana)
Notes: methotrexate growth selection, single substitutions
Parent: PYL1, truncated, DHFR fusion (Arabidopsis thaliana); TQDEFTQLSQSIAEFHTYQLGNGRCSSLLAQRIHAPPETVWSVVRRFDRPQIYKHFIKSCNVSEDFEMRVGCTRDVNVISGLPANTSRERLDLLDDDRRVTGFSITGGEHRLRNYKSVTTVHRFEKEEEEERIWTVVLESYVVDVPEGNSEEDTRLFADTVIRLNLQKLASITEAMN
I57E: -23.9%
T6G: 68%
D95F: -11.2%
T17R: 5.67%
D75V: 80.4%
T1D: 57.1%
Q7A: 72%
F5E: 29.7%
P50C: -9.19%
S104D: -3.99%
L112E: -3%
V143L: -12.4%
R49Y: 19.9%

Sample 4 — technique: protein binding microarray; form: double-stranded DNA, one strand shown; medium: in vitro; concentration: not given; relative to: not given; reading: higher = stronger binding; quantity: E-score
Target: Histone acetyltransferase KAT6A, both winged helices, GST fusion (KAT6A, Homo sapiens, UniProt Q92794, residues 1-181)
Notes: 8-mer, flanks averaged, mean of 2 arrays, mostly near background
Target sequence (chain): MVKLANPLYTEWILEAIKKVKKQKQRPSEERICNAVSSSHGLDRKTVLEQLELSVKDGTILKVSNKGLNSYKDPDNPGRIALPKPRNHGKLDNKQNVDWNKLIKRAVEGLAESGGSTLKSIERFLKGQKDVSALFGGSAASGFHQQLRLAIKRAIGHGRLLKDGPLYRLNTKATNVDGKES
CCAGTTAG: -0.283
AAACCTTG: -0.203
ATCCTTTA: -0.167
GAGATCTA: -0.0829
GCGACAAC: 0.202
GACGAGTC: -0.065
GCACGCAA: 0.108
CGAGTTGC: -0.0163
AGAATTGG: -0.182
CATACTGA: -0.151
CGCCGCAA: 0.357
AACTTCTT: -0.202
CCACCCAG: -0.209
AGAAAGCA: -0.136
ACGACCCA: -0.221
CGACACAC: -0.0165
GCACGCCA: 0.0142
GCCGCAGA: 0.196
AGGCGATA: -0.106
GGATAGAC: 0.0764
ATACGTGA: 0.0138

Sample 5 — target: CCND1, cyclin fold, Cln2 fusion (human); technique: yeast growth competition, sequencing; medium: yeast; notes: weak parent motif; relative to: not given; reading: higher = stronger binding; quantity: normalised enrichment score
Parent: ORC1 docking peptide (human); PRARKRLELGNLG; partner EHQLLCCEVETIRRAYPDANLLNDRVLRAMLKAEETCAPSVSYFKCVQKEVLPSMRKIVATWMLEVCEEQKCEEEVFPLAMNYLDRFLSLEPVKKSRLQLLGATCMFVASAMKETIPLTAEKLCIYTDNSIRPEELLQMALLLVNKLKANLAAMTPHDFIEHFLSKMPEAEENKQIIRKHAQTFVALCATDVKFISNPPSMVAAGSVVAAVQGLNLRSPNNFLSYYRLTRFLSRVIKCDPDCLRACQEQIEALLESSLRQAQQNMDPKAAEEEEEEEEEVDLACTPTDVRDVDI
R4Q: -0.169
G13K: -0.00109
K5W: 0.135
G10K: -0.267
G10W: 1.1
K5T: -0.00319
L9H: -0.00333
R6M: 0.336
G10N: -0.553
L9A: 0.306
A3Q: 0.613
R2Y: -0.353
R4G: 0.202
R6K: -0.319

Sample 6 — target: JUNB, bZIP domain (human); technique: DHFR protein complementation; medium: yeast; relative to: wild-type JUN-FOS pair; reading: higher = stronger binding; quantity: binding fitness
Notes: single substitutions, most at no-binding floor
Parent: JUN, bZIP domain (human); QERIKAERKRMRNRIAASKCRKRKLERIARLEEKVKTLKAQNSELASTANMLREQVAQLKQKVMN; partner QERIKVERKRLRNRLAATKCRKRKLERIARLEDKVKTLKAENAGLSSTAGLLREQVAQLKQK
Q55W: -1.54 natural log
L31R: -1.51 natural log
S47C: -1.12 natural log
Q41H: -1.26 natural log
E33F: -1.29 natural log
Q55H: -1.38 natural log
R30E: -0.847 natural log
K39T: -0.92 natural log
K36Q: -1.19 natural log
L38N: -1.52 natural log
E54P: -1.52 natural log
A29N: -1.34 natural log
Q55G: -1.48 natural log
T48Y: -1.34 natural log
K36G: -1.34 natural log
R30N: -1.23 natural log
